# Results collected from several papers.
# Several values in a cell are separate wells, animals, samples, runs or records. ± gives the spread as reported.
SMILES,test,test system,setting,scale,endpoint,result
CC(=O)N(C)C1CCN(c2cc(F)cc(NC(=O)c3cc4c(F)ccc(C)c4[nH]3)c2)C1 (centres unmarked),,CD1 mouse,"intravenous, 1 mg/kg",,MRT(0-inf),0.7 h
CNc1cc[n+](CCNC(=O)c2ccn3c(-c4c(C)noc4C)cnc3c2)cc1.[Cl-],,0.1 M HCl,"1 weeks, pH 1, room temperature",,largest degradation product,not detected
C[C@@H](c1ncncc1F)[C@](O)(Cn1cncn1)c1ccc(F)cc1F,,human,"oral, 400 mg, drug interaction trial",,grade 3-4 TEAE,0%
CC(C)Nc1ccnc(Nc2cccc(-c3ccccn3)c2)n1,,MDCKII-WT cells,"10 µM, pH 7.4",baseline: Papp B-A over A-B,efflux ratio,2.99
O=C(Nc1ccccc1)c1cc([N+](=O)[O-])ccc1[76Br],,heparinized rat blood,5 min,,intact radiotracer,15%
C=CCN1CC(=O)N2[C@@H](Cc3ccc(O)cc3F)C(=O)N(Cc3cccc(N4CC(N5CCN(CC)CC5)C4)n3)C[C@@H]2N1C(=O)NCc1ccccc1,,advanced solid tumour patients,"oral, 10 mg twice daily, any grade, dose-escalation",,treatment-related decreased appetite,0%
c1ccc(CN2CCCN3CCN(Cc4ccccc4)CCCN(CC2)Cc2cccc(n2)C3)cc1,,64Cu complex in rat plasma,"0.5 h, 37 °C",,intact complex,97%
Cc1ccc(N(C)C(=O)/C=C/c2ccco2)cc1,hot plate test,mouse,"oral, 30 mg/kg daily for 7 days, day 8, 30 min after dose",,licking latency,15 ± 0.6 s
COc1ccc2[nH]c([S+]([O-])Cc3ncc(C)c(OC)c3C)nc2c1 (centres unmarked),,"healthy Chinese volunteers, plasma","oral, 20 mg, enteric-coated tablets, CYP2C19 rapid metabolizers",,Cmax,475 ± 15.8 ng/mL
CN(C)CCNS(=O)(=O)c1ccc(N/C=C2\C(=O)Nc3ccccc32)cc1,,octanol/buffer,"67 µM, pH 7.4",,logD,1.67
Cc1c([C@H]2COC[C@@H](c3ccc(C(C)(C)C)cc3)N2)cnn1-c1ccccc1,"shake-flask, 1-octanol/buffer",,pH 7.4,,logD,> 4.7
N#Cc1ccc2c(c1)[C@H]1CCCN(C(=O)c3ccc4[nH]cnc4c3)[C@H]1C2,,human,"160 mg, end of trial",baseline: baseline,cortisol level change,-218 nmol/L
C=CC(=O)NC1CCN(c2ncc3ncnc(Nc4ccc(Oc5ccc6c(c5)ncn6C)c(C)c4)c3n2)CC1,,"healthy male volunteers, plasma","oral solution, 60 mg",baseline: compound over total radioactivity,AUC0-tz ratio,0.595
Cl.[2H]C([2H])([2H])CC(=O)c1cnc(NC(=O)C2CC2)cc1Nc1cccc(-c2ncn(C([2H])([2H])[2H])n2)c1OC,geometric mean,human,"oral, 40 mg twice daily, day 7, fed, liquid, multiple dose",,half-life,8.41 h
O=C[C@H]([18F])[C@@H](O)[C@H](O)[C@H](O)CO,,"Kunming mice, turpentine inflammation, inflamed muscle","intravenous, 0.74 MBq, 60 min",,tissue uptake,6.93 ± 0.9 %ID/g
C[C@]12O[C@H](C[C@]1(O)CO)n1c3ccccc3c3c4c(c5c6ccccc6n2c5c31)CNC4=O,dynamic light scattering,bovine serum,,,hydrodynamic diameter,16.9 nm
CC(C)C[C@H](NC(=O)[C@H]1O[C@@H]1C(=O)O)C(=O)NCCCCN=C(N)N,,PBS,"100 µM, 23 h, pH 8, 37 °C, with: cysteine 10 mM",,cysteine adduct formation,79%
CN(CCC#N)C1CCN(C(=O)Cn2cc(NC(=O)c3cnn4cccnc34)c(-c3cc(Cl)ccc3OC(F)F)n2)CC1,,"human, single ascending dose","1.5 mg, day 4",baseline: baseline,LDL cholesterol change,5.8 mg/dL
COc1ccc(-n2c(SCC(N)=O)nnc2-c2cccs2)cc1,,octanol/buffer,pH 7.4,,logD,1.76
C/C=C/C[C@@H](C)C(=O)[C@H]1C(=O)N[C@@H](C(C)C)C(=O)N(C)CC(=O)N(C)[C@@H](CC(C)C)C(=O)N[C@@H](C(C)C)C(=O)N(C)[C@@H](CC(C)C)C(=O)N[C@@H](C)C(=O)N[C@H](C)C(=O)N(C)[C@@H](CC(C)C)C(=O)N(C)[C@@H](CC(C)C)C(=O)N(C)[C@@H](C(C)C)C(=O)N1C,,"Sprague Dawley rat, plasma","intravenous infusion, 2.67 mg/h/kg, 4 h, 4.5 h constant infusion",,free plasma concentration,976 ng/mL
CC(C)COC(=O)c1ccc2c(c1)/C(=N/Nc1ccc(S(N)(=O)=O)cc1)C(=O)N2,,octanol/buffer,"67 µM, pH 7.4",,logD,1.02
CCCCCN1C[C@H](O)[C@@H](O)[C@H](O)[C@@H]1CO,LC-MS/MS,"Hexb-/- mice, male, brain",300 mg/kg/day,,geometric mean brain concentration,277 ng/g
Oc1ccc(/C=C/c2cc(O)cc(O)c2)cc1,,"rat, azoxymethane-injected, blood at sacrifice",100 mg/kg,,total cholesterol,77 mg/dL and 69 mg/dL and 68 mg/dL
FC(F)(F)c1ccc(CNc2ccc(Cc3c[nH]c4ncc(Cl)cc34)cn2)cn1,measured: aspartate aminotransferase increased,patients with advanced solid tumours,"oral, dose not given, grade 1 and 2, possibly related to drug",,adverse event incidence,28%
Cc1ccc(O)c(-n2nc3ccccc3n2)c1,,"human, both sexes","topical, dose not given, sunscreen, age 2-3 years, 95th percentile",,daily dermal uptake,5160 ng/kg body weight/day
CNCCOC12CC3(C)CC(C)(CC(Cn4ncc(-c5ccc(N6CCc7cccc(C(=O)Nc8nc9ccccc9s8)c7C6)nc5C(=O)O)c4C)(C3)C1)C2,,"beagle dog, male, anaesthetised","intravenous bolus, 0.03 mg/kg, 90 min",baseline: baseline,mean arterial pressure change,1%
Cc1cc(Nc2cc3ncccc3c(N[C@@H]3C[C@H]4CC[C@@H](C3)N4CCC#N)n2)n[nH]1,,healthy human,"oral, 10 mg multiple doses, 14 days",,subjects with epistaxis,0%
CC(C)c1c(C(=O)Nc2ccc(O)cc2)c(-c2ccccc2)c(-c2ccc(F)cc2)n1CC[C@@H]1C[C@@H](O)CC(=O)O1,"reverse phase LC, C18","acetonitrile gradient, 0.1% formic acid",converted from retention time,baseline: Valko CHI standards,chromatographic hydrophobicity index,85.6
CCN1/C(=C/C(C)=O)Sc2ccc(F)cc21,,cynomolgus monkey,"oral, 100 mg/kg, 24 h post-dose",,systolic blood pressure,109 ± 9 mmHg
OCc1nc2ccc(NCc3ccc(C(F)(F)F)cc3)cc2[nH]1,,"Balb/c mouse, male, heart","intravenous, 1 mg/kg, 6 h",,tissue concentration,17.8 ± 8.4 ng/g
O=C(Cc1ccccc1[N+](=O)[O-])Nc1ccccc1C(=O)N1CCOCC1,,octanol/buffer,pH 7.4,,logD,1.24
CCC(=O)N(CCC(c1ccc2c(c1)OCO2)c1ccccc1OC)Cc1ccccc1 (centres unmarked),,"female athymic nude mouse, blood","i.p., 60 mg/kg twice daily, 14 days, group mean",,GGT,0 U/L
Cc1ccc([C@@H]2O[C@H](CO)[C@@H](O)[C@H](O)[C@H]2O)cc1Cc1ccc(-c2ccc(F)cc2)s1,,Japanese type 2 diabetes patients,"200 mg, day 1, 24 h urine collection",baseline: baseline,urinary chloride excretion change,38 mEq
CC(C)(C(=O)N1CCOc2c(C#N)cncc2C1)C(F)F,measured: Palpitations,human,"oral, 10 mg once daily, 14 days, multiple ascending dose",,subjects with adverse event,0%
COc1ncc(-c2nc3c(n2C(C)C)[C@H](c2ccc(Cl)cc2)N(c2cc(Cl)cn(C)c2=O)C3=O)c(OC)n1,,"human patients, plasma","oral, 25 mg, high-dose arm, cycle 2 day 1",,median Tmax,2.9 h
O=C(Nc1nc2cccc(-c3ccc(CN4CCS(=O)(=O)CC4)cc3)n2n1)C1CC1,measured: hypercholesterolaemia,human rheumatoid arthritis patients,"oral, 300 mg once daily, 4 weeks, regardless of relatedness",,treatment-emergent adverse events,0%
C=CC(=O)Nc1cc(Nc2nccc(-c3cn(C4CC4)c4ccccc34)n2)c(OC)cc1N(C)CCN(C)C,,"BALB/c nude mouse, LU0387 xenograft, serum","oral, 40 mg/kg",,GLU level,12.5 ± 0.663 mmol/L
C[C@H](NC(=O)[C@H](CCC(N)=O)NC(=O)[C@H](C)NC(=O)[C@H](CCCNC(=N)N)NC(=O)[C@H](CCC(N)=O)NC(=O)[C@H](C)NC(=O)[C@H](CCCNC(=N)N)NC(=O)[C@H](CCC(N)=O)NC(=O)[C@H](C)NC(=O)[C@H](CCC(N)=O)NC(=O)[C@H](CCCNC(=N)N)NC(=O)[C@H](C)NC(=O)[C@H](CCC(N)=O)NC(=O)[C@H](CCCNC(=N)N)NC(=O)[C@H](C)NC(=O)[C@H](CCC(N)=O)NC(=O)[C@H](C)NC(=O)[C@H](CCCNC(=N)N)NC(=O)[C@H](CCC(N)=O)NC(=O)[C@H](C)NC(=O)[C@H](CCCNC(=N)N)NC(=O)[C@H](CO)NC(=O)[C@H](Cc1ccc(O)c(I)c1)NC(=O)CNC(=O)CNC(=O)CN)C(=O)N[C@@H](CCCNC(=N)N)C(=O)N[C@@H](CCC(N)=O)C(=O)N[C@@H](C)C(=O)N[C@@H](CCCNC(=N)N)C(=O)N[C@@H](CCC(N)=O)C(=O)O [iodine-125 labelled],,"H2-Ld-huIL-6 Tg Balb/c mice, AA amyloidosis, stomach","intravenous, 4 h, decay-corrected",,tissue uptake,23.2 %ID/g
C[C@@H](NC(=O)N1C(=O)[C@H](Cc2ccnc(N)c2)[C@H]1C(=O)O)C1CCCCC1,UPLC-MS/MS,"healthy adult Chinese volunteers, plasma","continuous intravenous infusion, 1.0 mg/kg/h, day 6 of 5-day infusion, mean",,CL,5.18 mL/min/kg
C[C@H]1Oc2cc(cnc2N)-c2c(nn(C)c2C#N)CN(C)C(=O)c2ccc(F)cc21,population PK,"severe renal impairment patients, plasma","oral, 100 mg once daily, cycle 1 day 15, steady state",,CL,128 mL/min
COc1cc2c3c(n(CCCN4CCOCC4)c(=O)c2cc1OC)-c1cc2c(cc1C3=O)OCO2,,"beagle dog, female, plasma","oral, 860 mg/m^2, gelatin capsule",,CL/F,50 L/h/m² and 43600 L/h/m²
O=C(O)CCC(=O)O.[2H]C([2H])([2H])Oc1cc(C)c2[nH]ccc2c1CN1CC[C@@H](C2CC2)C[C@H]1c1ccc(C(=O)O)cc1,,healthy Chinese subjects,"400 mg, single ascending dose",,TEAE sinus bradycardia,0%
Cc1cc(NC2CCN(C(=O)OC3CCN(C(=O)/C=C/CN(C)C)C3)CC2)n2ncc(C(C)C)c2n1 (centres unmarked),,patients with advanced solid tumours,"dose not given, QD arm, grade 3 or higher",,patients with Anemia,9%
CN(CCC(=O)O)C(=O)c1ccc2c(c1)CC[C@@H]1[C@@H]2CC[C@]2(C)C(c3cncc(F)c3)=CC[C@@H]12,,"premenopausal women with endometriosis pain, serum","60 mg twice daily, end of treatment, completers, mean",,total bilirubin,0.964 mg/dL
CCCCOC(=O)N1CCN(C(=O)[C@H](CP(=O)(O)O)NC(=O)c2cc(N3CC[C@H](OC)C3)nc(-c3ccccc3)n2)CC1,measured: aspartate aminotransferase,"human, serum","16 mg, 24 h post-dose",,change from baseline,-0.9 ± 4.6 U/L
CCOC(=O)N1C[C@@H](c2ccccc2O)N[C@@H](c2cccc(Br)c2)C1,"shake-flask, 1-octanol/buffer",,pH 7.4,,logD,> 4.7
CC(C)(C)OC[C@@H]1C(=O)NCCN1C(=O)C[C@H](N)Cc1cc(F)c(F)cc1F,,"human, plasma","oral, steady state, EP treatment",,Vdss/F,1780 ± 505 L
C=CCn1c(=O)c2cnc(Nc3ccc(N4CCN(C)CC4)cc3)nc2n1-c1ccc2c(n1)[C@@](O)(CC)CC2,,"female NOD/SCID mouse OVCAR-3 xenograft, plasma","oral, 90 mg/kg once daily, :3",,AUC(0-24),36900 ng·h/mL
CCn1cc(C(=O)N2CCOCC2)c(=O)c2cc(NC3Cc4ccccc4C3)cnc21,,"human, fed","oral suspension, 1200 mg/day twice daily, day 8, arithmetic mean",,Cmax,2780 ng/mL
FC(F)(F)c1ccc([C@@H]2COC[C@H](c3cnc(-c4ccccc4)nc3)N2)cc1,"shake-flask, 1-octanol/buffer",,pH 7.4,,logD,> 4.7
CCc1cc(C(=O)NC)c2nccc(N3CCc4c(cc(Cn5ccnc5)cc4-c4cn(C)nc4C(F)(F)F)C3=O)c2c1,,Sprague Dawley rats,"oral, 100 mg/kg twice daily, 7 days",baseline: vehicle,serum TG change,-29.8%
CCOC(=O)N1C[C@@H](c2ccc(C(C)(C)C)cc2)N[C@@H](c2nc3ccccc3n2C)C1,"shake-flask, 1-octanol/buffer",,pH 7.4,,logD,> 4.7
CC[C@@H]1CN(C(=O)NCC(F)(F)F)C[C@@H]1c1cnc2cnc3[nH]ccc3n12,population PK modelling,human,"oral, immediate-release formulation, outliers excluded",,absorption rate constant (Ka),2.77 h⁻¹
NC(N)=NCCC[C@@H](N)C(=O)N[C@@H](CCCN=C(N)N)C(=O)N1CCC[C@H]1C(=O)N1C[C@H](O)C[C@H]1C(=O)NCC(=O)N[C@@H](Cc1cccs1)C(=O)N[C@@H](CO)C(=O)N1Cc2ccccc2C[C@@H]1C(=O)N1[C@H](C(=O)N[C@@H](CCCN=C(N)N)C(=O)O)C[C@@H]2CCCC[C@@H]21,popPK base model typical value,human,subcutaneous,,absorption lag time,0.0418 h
CCOc1c([C@H](C)n2nc(C)c3c(N)ncnc32)cc(Cl)c(F)c1[C@@H]1CNC(=O)C1,,"patients with B-cell malignancies, plasma","oral, 30 mg, day 15, all cohorts, monotherapy",,half-life geometric mean,9.7 h
FC(F)(F)c1cc(Nc2ncnc3ccc(-c4cccc(N5CCOCC5)c4)cc23)ccc1Cl,,human liver microsomes,,,CLint,26 µL/min/mg
